Published values from different studies.
Every numbered part comes from another study and shows a few of its results, in no order. Changes are numbered by the printed parent chain.

Sample 1
Target: ABI1, truncated, D143A, DHFR fusion (Arabidopsis thaliana, UniProt P49597)
Technique: DHFR PCA, dose-response
Matrix: yeast
Notes: Hill fit, mean, not affinity
Together with: (+)-ABA, dose series
Direction: lower = more sensitive
Starting sequence: PYL1, truncated, DHFR fusion (Arabidopsis thaliana, UniProt Q8VZS8); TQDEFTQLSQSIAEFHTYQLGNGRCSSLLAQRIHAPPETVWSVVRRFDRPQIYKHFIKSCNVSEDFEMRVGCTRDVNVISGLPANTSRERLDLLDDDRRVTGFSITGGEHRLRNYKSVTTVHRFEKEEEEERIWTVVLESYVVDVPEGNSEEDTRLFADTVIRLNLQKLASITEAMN
Substitution	ABA EC50 [µM]
E147A	2.76
N77G	4.29
Q10A	1.21
I52M	3.71
R32E	3.55
C60N	365
V142I	1.64
L156F	3.55
V136D	145
F15A	121
V78I	2.21
K126I	1.76
E125C	2.17
D97K	2.28
N61H	1.17
F5N	7.18
A35W	822
T73Y	2.42
L93R	3.66
Q167I	5.44
T39C	3.65
V121A	529

Sample 2
Target: CCNE1, cyclin fold, Cln2 fusion (human)
Technique: yeast growth competition, sequencing
Matrix: yeast
Notes: weak parent motif
Baseline: not given
Direction: higher = stronger binding
Starting sequence: CDC6 docking peptide (human); TLKGRRLVFDNQL
Substitution	normalised enrichment score
L2F	-0.437
N11H	0.118
V8E	1.17
Q12M	0.943
V8M	-0.0255
R5C	0.267
L13A	0.326
K3Q	0.316
G4L	0.555
K3N	-0.0099
Q12C	0.663
T1E	1.1
R6V	1.33
V8L	1.04
Q12R	0.0147
D10C	1.08
K3E	-0.232
R5I	-0.232
L13E	0.815
N11C	1.09
L2I	0.491
N11I	0.172
T1A	0.0123
T1I	0.337
G4A	0.736

Sample 3
Target: Sal-like protein 4, full length isoform A (SALL4, Homo sapiens, UniProt Q9UJQ4, residues 1-1053)
Chain of UniProt Q9UJQ4 (whole entry, looked up): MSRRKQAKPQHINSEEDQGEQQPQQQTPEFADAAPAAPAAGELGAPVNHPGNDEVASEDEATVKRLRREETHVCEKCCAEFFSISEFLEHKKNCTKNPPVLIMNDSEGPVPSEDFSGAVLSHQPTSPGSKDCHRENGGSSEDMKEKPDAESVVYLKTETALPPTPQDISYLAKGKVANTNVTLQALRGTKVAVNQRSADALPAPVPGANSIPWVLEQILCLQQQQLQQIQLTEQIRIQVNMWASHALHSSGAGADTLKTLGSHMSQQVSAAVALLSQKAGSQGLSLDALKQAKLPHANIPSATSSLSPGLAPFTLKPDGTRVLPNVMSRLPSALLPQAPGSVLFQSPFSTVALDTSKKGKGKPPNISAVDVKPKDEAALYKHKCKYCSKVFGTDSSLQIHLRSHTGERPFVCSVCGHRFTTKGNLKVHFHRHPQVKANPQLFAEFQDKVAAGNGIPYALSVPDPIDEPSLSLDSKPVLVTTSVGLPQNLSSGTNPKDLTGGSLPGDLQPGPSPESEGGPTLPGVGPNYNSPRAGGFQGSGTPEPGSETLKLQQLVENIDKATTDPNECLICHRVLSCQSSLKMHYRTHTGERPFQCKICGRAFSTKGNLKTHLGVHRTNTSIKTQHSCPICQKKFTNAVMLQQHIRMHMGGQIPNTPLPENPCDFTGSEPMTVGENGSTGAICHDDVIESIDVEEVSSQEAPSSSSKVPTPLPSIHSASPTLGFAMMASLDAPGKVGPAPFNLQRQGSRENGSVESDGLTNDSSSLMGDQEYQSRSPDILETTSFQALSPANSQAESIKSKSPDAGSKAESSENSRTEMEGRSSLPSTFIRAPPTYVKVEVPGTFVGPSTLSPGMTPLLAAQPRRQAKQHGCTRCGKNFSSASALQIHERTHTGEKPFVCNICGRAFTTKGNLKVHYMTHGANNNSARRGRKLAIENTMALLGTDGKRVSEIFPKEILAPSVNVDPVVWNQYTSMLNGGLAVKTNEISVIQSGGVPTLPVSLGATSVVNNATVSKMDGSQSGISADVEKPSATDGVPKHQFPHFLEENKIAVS
Technique: universal PBM
Form: double-stranded DNA, one strand shown
Matrix: in vitro
Concentration: 600 nM
Notes: 8-mer, flanks averaged, mean of replicates
Direction: higher = stronger binding
Strand	E-score
AGACCAAG	-0.183
CTAAAACA	0.0895
ATGAGCAA	0.159
AATTTACG	0.169
ATAAAGTC	0.264
AGGGCAAG	-0.0968
GCCTAAAC	-0.092
AACACTAC	0.148
ACCGTATA	0.0669
GTGCCAGA	-0.18
CAAAACTA	0.263
AGAGACTC	-0.0851
AAATGATG	0.22
CGCAAGCA	0.062
CCGGAACA	-0.0887
CGCTTTCC	-0.188
GACGACGC	-0.227
AAGAACAG	0.0523
GACGAATA	0.188
CGAATTAA	0.212

Sample 4
Target: Ras GTPase-activating protein-binding protein 1, RRM domain (G3BP1, Homo sapiens, UniProt Q13283)
Chain of UniProt Q13283 (whole entry, looked up): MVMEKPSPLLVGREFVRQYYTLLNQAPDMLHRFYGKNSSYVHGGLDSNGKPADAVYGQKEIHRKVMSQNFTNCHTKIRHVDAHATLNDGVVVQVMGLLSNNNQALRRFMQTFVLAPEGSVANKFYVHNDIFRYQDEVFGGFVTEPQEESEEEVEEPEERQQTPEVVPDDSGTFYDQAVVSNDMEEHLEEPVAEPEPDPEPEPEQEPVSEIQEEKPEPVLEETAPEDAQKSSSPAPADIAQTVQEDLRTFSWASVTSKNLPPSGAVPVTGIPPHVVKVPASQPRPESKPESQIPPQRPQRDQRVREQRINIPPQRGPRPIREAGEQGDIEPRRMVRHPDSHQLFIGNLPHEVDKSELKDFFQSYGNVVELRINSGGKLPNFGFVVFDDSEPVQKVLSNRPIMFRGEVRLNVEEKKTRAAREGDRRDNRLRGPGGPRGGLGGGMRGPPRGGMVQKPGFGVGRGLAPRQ
Technique: RNA Bind-n-Seq
Form: RNA
Matrix: in vitro
Concentration: 1 µM
Notes: whole 134-nt RNA, ends assumed
Together with: 150 mM KCl
Baseline: input library
Direction: higher = stronger binding
Strand	log2 enrichment
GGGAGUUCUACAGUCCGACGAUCCUCAAGUCCUGUGCUACACAUCGUAUGUACCGAAUCGGGAAGGAAGGGAAGGGAAAGUAUUAUGUUACGCCGUUCGGAUCUGCACUUCCAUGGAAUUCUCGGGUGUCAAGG	-0.116
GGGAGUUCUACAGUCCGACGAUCUGGCCCUGGUGGCCUGCGGGGAGGAAGAGGUGGCCUCAUGGAUCGUGGUGGUCCCGGUGGAAUGUUCAGAGGUGGCCGUGGUGGAGACAGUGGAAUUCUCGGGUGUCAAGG	0.836
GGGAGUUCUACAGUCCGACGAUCACCAUGCAGGUGGGCAUCUUUGGGAAGUGGGGCAAGGGGGGGAUACGGAGGGGGGUAACACUUUGGGAACAGGUGGUCCCAGGUCGUUUCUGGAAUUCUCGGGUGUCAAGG	1
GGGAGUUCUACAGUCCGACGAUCUAAUUUUAGAGGAGGAUCUGAUGGAUAUGGCAGUGGACGUGGAUUUGGGGAUGGCUAUAAUGGGUAUGGAGGAGGACCUGGAGGUGGCAAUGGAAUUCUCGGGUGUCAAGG	-0.629
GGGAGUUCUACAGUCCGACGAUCGUCCUGUGCUACACAUCGUAUGUACCGAAUCGGGGCCCCGGGGCCCCGGGCCCCGGGGAAAGUAUUAUGUUACGCCGUUCGGAUCUGCACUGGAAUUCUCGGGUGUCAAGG	-1.51
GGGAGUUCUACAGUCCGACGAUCAAGUCCUGUGCUACACAUCGUAUGUACCGAAUCGGGUUUUUGGGUUUUUGGGUGGGAAAGUAUUAUGUUACGCCGUUCGGAUCUGCACUUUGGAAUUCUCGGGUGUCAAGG	0.282
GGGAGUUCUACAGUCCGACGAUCUCCUGUGCUACACAUCGUAUGUACCGAAUCGGGGUUUUUGGGGUUUUUGGGGUUUGGGGAAAGUAUUAUGUUACGCCGUUCGGAUCUGCAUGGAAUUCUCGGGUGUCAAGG	1.25
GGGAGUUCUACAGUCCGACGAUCCACAGACAACACGCACCCACACAGACACAGAGGGAAGGGGUUGGGAUGGGAACAGGGUGCACAGCAGGGCGGGGUAGGACCCCAGCCCCUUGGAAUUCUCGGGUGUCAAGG	0.042
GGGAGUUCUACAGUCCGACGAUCGCAGGAAGUAAAAACAAAUGGAAAUGCUUCGGAUAGUGGCAGGGGUGGGGGUUGCUAUGGAAAGGGUGGGAUGGGAGUGGGUAAAGAGUUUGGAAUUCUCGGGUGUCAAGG	1.55
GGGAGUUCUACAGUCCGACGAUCUCAAGGGUUAUACACGGAAAGCCGCUGCGCUGGAAGCGAUGAAGGACUACACCAAAGCCAUGGAUGUGUACCAGAAGGCGCUAGACCUGGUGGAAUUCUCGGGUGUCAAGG	-0.266
